Measured values gathered from unrelated publications.
“And” joins repeats or separate records; there may be more than shown. ± marks the error that the study gave.

Under “plasma concentration at 24 h”, `Cc1cc(-c2cc(OC(=O)c3ccccc3)ccc2Cl)cc2nnc(Nc3ccc(OCCN4CCCC4)cc3)nc12` is recorded as “not detected” (Long Evans rat, plasma; topical, 1%).
For `NC(=O)N1CCC(CC(=O)N2CCC([C@H]3c4ncc(Br)cc4CCc4cc(Cl)cc(Br)c43)CC2)CC1`, the AUC(tau) was 15300 ng·h/mL (human, plasma; oral, 150 mg twice daily, cycle 2 day 15, added: gemcitabine 750 mg/m2).
`CCCC[C@H](NC(=O)CN1CCN(CC(=O)O)CCN(CC(=O)O)CCN(CC(=O)O)CC1)C(=O)N[C@H]1CC(=O)NCCCC[C@@H](C(N)=O)NC(=O)[C@H](Cc2c[nH]c3ccccc23)NC(=O)[C@H](CCCNC(=N)N)NC(=O)[C@@H](Cc2ccccc2)NC(=O)[C@H](Cc2c[nH]cn2)NC1=O` [indium-111 labelled] has a liver uptake of 7.5% (B16/F1 melanoma C57 mice, liver; 4 h; baseline: 99mTc(CO)3-pz-βAla-Nle-cyclo[Asp-His-D-Phe-Arg-Trp-Lys]-NH2).
`O=C(O)Cc1ccccc1Nc1c(Cl)cc(F)cc1Cl` has a remaining compound of 99 ± 1.2% (human liver microsomes; 30 min, added: NADPH).
The t1/2 of `CC(C)NC[C@@H](C(=O)N1CCN(c2ncnc3c2[C@H](C)C[C@H]3O)CC1)c1ccc(Cl)cc1` is reported as 86.1 h (human, Severe hepatic function, plasma; oral, 100 mg single dose, NCI classification, arithmetic mean).
For `CC(C)[C@H](C(=O)Nc1ccc(C(=O)NO)cc1)c1ccccc1`, the tissue/plasma ratio was 53.4 (human, tumour peripheral capsule over plasma; 40 mg; baseline: pre-anaesthesia plasma).
For `COc1cc2c(Oc3ccc4[nH]c(C)cc4c3F)ncnc2cc1OCCCN1CCCC1`, “AUC, steady state” read 1210 ng·h/mL (human patients, plasma; oral, 30 mg, cycle 2 day 1, geometric mean, added: pemetrexed).
For `Cc1nc2cccc(OCC(C)(C)C(=O)NC(C)C)c2c(N)c1C(=O)O`, the Tmax was 0.5 h (Sprague-Dawley rat, male, plasma; oral, 10 mg/kg, day 7).
The effective half-life of `Cn1ncc(Cl)c1-c1cc(C(=O)N[C@H](CN)Cc2ccc(F)c(F)c2)oc1Cl` is reported as 87.9 to 129 h (human patients, plasma; oral, 150 mg once daily, day 15, repeat dose).
The dose-normalized AUC(0-inf) of `[2H]C([2H])([2H])Oc1cc2c(cc1OC([2H])([2H])[2H])C1CC(=O)C(CC(C)C)CN1CC2` (centres unmarked) is reported as 6 ng·h/mL (refers to: deuterated β-HTBZ; healthy human volunteers, plasma; oral, 24 mg single dose, standard meal).
The clearance of `C=CC(N)CCC(=O)O` (centres unmarked) is reported as 9.47 ± 0.3 mL/min/kg (male Sprague-Dawley rat, plasma; oral, 10 mg/kg, formulation 8, added: infant formula 1500 mg/kg).
For `O=C(c1cccnc1-c1ccncc1)N1CCC(O)(Cc2ccccc2)CC1`, the renal clearance was 3.33 mL/min (healthy human, urine; oral, 100 mg once daily, day 14, arithmetic mean).
The concentration of `CSc1cc(C)nc(SC)c1NC(=O)CN1CCN(CCSc2nc3ccccc3[nH]2)CC1` is reported as 15 ng/g (mouse Crl:CD1 (ICR) female, olfactory bulb; intranasal repeated, 32.4 µg in 0.01 N HCl, 30 min).
For `des-acyl ghrelin (human)`, the brain/serum ratio was 10 µL/g (mouse, wild type, cerebellum; intravenous, 10 min).
`CCn1cc(-c2nc(C)no2)c(=O)c2cc(F)c(N3CCC(C)CC3)cc21` gave a microsomal CLint of 12.4 µL/min/mg (metabolic stability; human, liver microsomes; 1 µM).
With `Cn1c(-c2ccc(C(N)=O)cc2F)nnc1C(C)(C)Oc1c(F)cc(Cl)cc1F` the half-life median was 17.7 h (young Japanese adults, plasma; oral, 10 mg single dose, day 1, high-dose multiple-dose study).
`CCCC[C@@H]1NC(=O)[C@@H](NC(=O)[C@H](CCC(=O)O)NC(=O)CNC(=O)CN2CCN(CC(=O)O)CCN(CC(=O)O)CCN(CC(=O)O)CC2)CCCCNC(=O)C[C@@H](C(N)=O)NC(=O)[C@H](C(C)C)NC(=O)[C@@H]2CCCN2C(=O)[C@H](CCCNC(=N)N)NC(=O)CNC(=O)[C@H](Cc2c[nH]c3ccccc23)NC(=O)[C@H](CCCNC(=N)N)NC(=O)[C@@H](Cc2ccccc2)NC(=O)[C@H](Cc2c[nH]cn2)NC(=O)[C@H](CCC(=O)O)NC1=O` [indium-111 labelled] gave a tissue uptake of 0.03 ± 0.03 %ID/g (C57 mice, B16/F10 lung metastatic melanoma, blood; intravenous, 0.037 MBq, 24 h).
`CC(C)=CCC[C@](C)(O[C@@H]1O[C@H](CO)[C@@H](O)[C@H](O)[C@H]1O)[C@H]1CC[C@]2(C)[C@@H]1[C@H](O)C[C@@H]1[C@@]3(C)CC[C@H](O)C(C)(C)[C@@H]3[C@@H](O[C@@H]3O[C@H](CO)[C@@H](O)[C@H](O)[C@H]3O[C@@H]3O[C@@H](C)[C@H](O)[C@@H](O)[C@H]3O)C[C@]12C` gave a CL/F of 360 ± 90 mL/min/kg (Sprague Dawley rat, male, plasma; oral, 45 mg/kg, in white ginseng extract).
`O=C(Cc1cccc(OC(F)(F)F)c1)Nc1ccc(CCCCc2nnc(NC(=O)Cc3ccccn3)s2)nn1` gave a Cmin of 126 ng/mL (human patients, plasma; oral, 250 mg three times daily fasted, cycle 1 day 15 steady state).
`CCCC[C@H](NC(C)=O)C(=O)N[C@H]1CCC(=O)NC[C@@H](C(=O)N[C@@H](Cc2c[nH]c3ccccc23)C(N)=O)NC(=O)[C@H](CCCNC(=N)N)NC(=O)[C@@H](Cc2ccccc2)NC(=O)[C@H](Cc2c[nH]cn2)NC1=O`: “CL/F, geometric mean” 318 mL/min (healthy volunteers, both sexes, plasma; subcutaneous, 3.0 mg single dose).
With `CC1=C2C[C@H]3[C@@H](CC[C@@H]4C[C@H](NS(C)(=O)=O)CC[C@@]43C)[C@@H]2CC[C@@]2(C1)O[C@@H]1C[C@H](C)CN[C@H]1[C@H]2C` the Tmax was 5 h (patients, plasma; oral, 180 mg daily, day 22, cycle 1).
`Cc1c(C(=O)c2ccccc2)c(N)c(-c2ccccc2)n1Cc1ccc(Cl)cc1` — result for brain level: “not detected” (mouse, brain; intraperitoneal, 20 mg/kg).
`C[C@@H](O)[C@H]1C(=O)N2C(C(=O)O)=C(S[C@@H]3CN[C@H](C(=O)N(C)C)C3)[C@H](C)[C@H]12` — result for “time above MIC”: 42% (microdialysis; pig, Danish Landrace, cortical bone; intravenous, 1000 mg over 10 min, 450 min dosing interval, added: 0.125 µg/mL MIC; baseline: dosing interval).
For `CC1(C)Oc2cc3oc(=O)ccc3cc2C[C@@H]1O`, “plasma AST activity” read 79.5 ± 19.7 U/L (male CD-1 mouse, plasma; oral gavage, 80 mg/kg daily, 4 weeks).
The Css,min of `Cc1cc(Nc2ncc(Cl)c(Nc3ccccc3S(=O)(=O)C(C)C)n2)c(OC(C)C)cc1C1CCNCC1` is reported as 20 nM and 14 nM (refers to: unbound drug; human, plasma; oral, 750 mg/day).
For `acyl ghrelin (human)`, the brain/serum ratio was 5.84 µL/g (mouse, wild type, cortex; intravenous, 10 min).
Under “minimum serum concentration”, `C[C@]12CC[C@@H]3c4ccc(O)cc4CC[C@H]3[C@@H]1C[C@@H](O)[C@@H]2O` is recorded as 0 ng/mL (GC-MS; breast cancer women on NSAI, serum; vaginal, 0.03 mg, 0.5 h, day 0).
For `C[C@H]1CO[C@@H]2Cn3cc(C(=O)NCc4ccc(F)cc4F)c(=O)c(O)c3C(=O)N12`, the concentration was 1930 ng/mL (human, plasma; oral, 30 mg, 24 h, single dose, fed, healthy volunteers).
Under tissue concentration, `COC(=O)C[C@](O)(CCCC(C)(C)O)C(=O)O[C@@H]1C(OC)=C[C@]23CCCN2CCc2cc4c(cc2[C@H]13)OCO4` is recorded as “not detected” (CD1 mouse, stomach; oral, 1 mg/kg, 24 h, below quantification limit 1.00 ng/mL).
`COc1ccccc1C(=O)Nc1cccc(NC(=O)c2cccc(C)c2)c1` gave a compound remaining of 100% (PBS/acetonitrile 1:1, 1% DMSO; 10 µM, 48 h, pH 7.4, room temperature).
`CN(C)Cc1cc(OCCC[18F])ccc1Sc1ccccc1N` has a tissue uptake of 0.45 ± 0.1 %ID/g (male Sprague-Dawley rats, control, remainder of brain; intravenous, dose not given, 60 min).
The pKa of `O=c1cc(-c2ccc(O)c(-c3c(O)cc(O)c4c(=O)cc(-c5ccc(O)cc5)oc34)c2)oc2cc(O)cc(O)c12` is reported as 1.42 (UV-vis pH titration; ethanol-water, 0.1 M NaCl; 25 µM, 25 °C, first pKa, keto protonation).
With `Cc1ccccc1-c1cc(N2CCN(C)CC2)ncc1N(C)C(=O)C(C)(C)c1cc(C(F)(F)F)cc(C(F)(F)F)c1` the exposure accumulation was about 3 fold (healthy human; oral, 100, 300 or 450 mg daily, 7 days; baseline: first dose).
Under “concentration in tumour”, `CCn1nc(C2CC2)cc1Nc1nc(C(=O)NCCCCCc2cccc3c2CN(C2CCC(=O)NC2=O)C3=O)nc2[nH]c3cc(-c4c(C)noc4C)c(OC)cc3c12` (centres unmarked) is recorded as 86 ng/g (female SCID C.B-17 mouse, RS4;11 xenograft, tumour; intravenous, 5 mg/kg single, 3 h).
`CC[C@H](C)[C@H](NC(=O)[C@H](Cc1ccccc1)NC(=O)[C@H](CCC(=O)O)NC(=O)[C@H](CCCCNC(=O)COCCOCCNC(=O)COCCOCCNC(=O)CC[C@H](NC(=O)CCCCCCCCCCCCCCCCC(=O)O)C(=O)O)NC(=O)[C@H](C)NC(=O)[C@H](C)NC(=O)[C@H](CCC(N)=O)NC(=O)CNC(=O)[C@H](CCC(=O)O)NC(=O)[C@H](CC(C)C)NC(=O)[C@H](Cc1ccc(O)cc1)NC(=O)[C@H](CO)NC(=O)[C@H](CO)NC(=O)[C@@H](NC(=O)[C@H](CC(=O)O)NC(=O)[C@H](CO)NC(=O)[C@@H](NC(=O)[C@H](Cc1ccccc1)NC(=O)[C@@H](NC(=O)CNC(=O)[C@H](CCC(=O)O)NC(=O)C(C)(C)NC(=O)[C@@H](N)Cc1cnc[nH]1)[C@@H](C)O)[C@@H](C)O)C(C)C)C(=O)N[C@@H](C)C(=O)N[C@@H](Cc1c[nH]c2ccccc12)C(=O)N[C@@H](CC(C)C)C(=O)N[C@H](C(=O)N[C@@H](CCCNC(=N)N)C(=O)NCC(=O)N[C@@H](CCCNC(=N)N)C(=O)NCC(=O)O)C(C)C` has an accumulation ratio of 1 (healthy Caucasian subjects, plasma; subcutaneous, once weekly; baseline: 1.0 mg over 0.5 mg).
For `CC(C)C[C@H]1C(=O)N2CCC[C@H]2[C@]2(O)O[C@](NC(=O)[C@@H]3C=C4c5cccc6[nH]c(Br)c(c56)C[C@H]4N(C)C3)(C(C)C)C(=O)N12`, the Vss was 0.106 ± 0.01 L/kg (male Sprague-Dawley rats, plasma; intravenous, 0.1 mg/kg, added: DAL 1.7 mg/kg plus HAL 0.7 mg/kg).
For `CCN1CC(=O)NC(CC(C)C)C(=O)N(C)C(C)C(=O)NC(CC(C)C)C(=O)N2CCCC2C(=O)N(CC2CCOCC2)CC(=O)NC(CC(C)C)C(=O)N(C)C(C)C(=O)NC(C)C(=O)N2CCCC2C1=O` (centres unmarked), the oral bioavailability was 2% (mouse; added: 1-aminobenzotriazole pretreatment).
The t1/2 of `Cc1cc(C)c2c(c1)[C@@H](N(Cc1cc(C(F)(F)F)cc(C(F)(F)F)c1)c1nnn(C)n1)CCCN2C[C@H]1CC[C@H](C(=O)O)CC1` is reported as 23.6 h (LC-MS/MS; human, plasma; oral, 10 mg once daily, steady state).
With `O=C1N=C(N2CCOCC2)CN1c1ccc(Cl)cc1` the terminal half-life was 1.47 h (beagle dog, female; oral, 30 mg/kg, tablets, fasted).
`CNC(=O)c1ccc(-c2cnc3ncc(Cc4ccc5ncccc5c4)n3n2)cc1F` has a half-life (mean) of 6.38 h (human, mild hepatic impairment (Child-Pugh A), plasma; oral, 200 mg single dose).
`Oc1ncnc2[nH]ncc12` — result for rosuvastatin pharmacokinetics: “no effect” (healthy human volunteers; oral, 300 mg once daily, 7 days, added: rosuvastatin 10 mg; baseline: placebo).
With `CC(C)=CCC/C(C)=C/CC/C(C)=C/COP(=O)(O)OP(=O)(O)OCc1ccccc1[N+](=O)[O-]` the uncaging half-life was 3.6 min (4 °C, irradiation 350 nm).
Under “intact parent radiotracer”, `CC(C)C[C@H](NC(=O)[C@H](CCCNC(=N)N)NC(=S)Nc1ccc(C[C@H]2CN(CC(=O)O)CCN(CC(=O)O)CCN2CC(=O)O)cc1)C(=O)N[C@@H](CC(N)=O)C(=O)N[C@H](C(=O)NCC(=O)NCC(=O)N[C@H](C(=O)N[C@@H](Cc1ccc(O)cc1)C(=O)N[C@@H](Cc1ccccc1)C(=O)N[C@@H](CC(C)C)C(=O)N[C@H](C(=O)N[C@H](C(=O)N[C@@H](CCCNC(=N)N)C(=O)N[C@@H](CCC(N)=O)C(=O)O)[C@@H](C)O)[C@@H](C)O)[C@@H](C)O)C(C)C` [fluorine-18 labelled] is recorded as 3.31 ± 0.2% (radio-HPLC; mouse (HepG2 tumour-bearing), urine; intravenous, 5.55 MBq, 1 h).
For `CS/C(S)=N/CCCC[S+](C)[O-]` (racemic), “mRNA fold change” read 0.095 (RT-PCR, refers to: Cyp2b15; rat, mammary gland; oral gavage, 200 mg/kg, dosed for four days; baseline: vehicle).
`O=C(O)[C@H](c1ccccc1Cl)N1CCc2sccc2C1`: “deviation from nominal” -6% (HPLC-MS/MS; feline EDTA plasma; 6 h, -20 °C, storage stability).
`CCCOc1ccc([C@H]2CNC(=O)N2c2ccc3[nH]cnc3c2)cc1` has an effective half-life of 2.43 h (human volunteers fasted, plasma; oral solution, 200 mg single dose, day 1, geometric mean).
The viscosity of `CC(=O)N1CCC[C@H]1C(=O)N[C@@H](CCCNC(=N)N)C(=O)N[C@H](C(=O)N[C@@H](CC(=O)O)C(=O)N[C@H](C(=O)N[C@@H](CCCNC(=N)N)C(=O)N[C@H](C(=O)N[C@@H](CC(=O)O)C(=O)N[C@H](C(N)=O)C(C)C)C(C)C)C(C)C)C(C)C` is reported as 658 ± 26.4 Pa·s (rotational rheometry; 1% w/v aqueous solution; shear rate range 1-1000 s^-1).
